Measured values collected from several papers.
Numbered parts are unrelated; each lists some results of a single study.
UniProt Q9Y385, sequence (whole entry, looked up): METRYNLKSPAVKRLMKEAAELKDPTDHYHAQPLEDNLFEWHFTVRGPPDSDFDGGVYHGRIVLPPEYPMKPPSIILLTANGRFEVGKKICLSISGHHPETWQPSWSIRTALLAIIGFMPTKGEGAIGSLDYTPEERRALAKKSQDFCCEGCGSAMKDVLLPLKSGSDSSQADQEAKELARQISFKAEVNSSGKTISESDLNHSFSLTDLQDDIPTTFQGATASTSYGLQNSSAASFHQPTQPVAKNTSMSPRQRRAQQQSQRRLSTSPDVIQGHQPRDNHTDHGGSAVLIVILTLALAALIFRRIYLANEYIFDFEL
UniProt Q9NPD8, sequence (whole entry, looked up): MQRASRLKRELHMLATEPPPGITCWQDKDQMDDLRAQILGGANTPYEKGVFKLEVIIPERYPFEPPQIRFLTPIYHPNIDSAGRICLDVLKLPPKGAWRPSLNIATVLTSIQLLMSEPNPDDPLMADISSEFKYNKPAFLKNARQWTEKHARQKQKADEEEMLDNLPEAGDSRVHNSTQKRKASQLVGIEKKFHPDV
UniProt P51668, sequence (whole entry, looked up): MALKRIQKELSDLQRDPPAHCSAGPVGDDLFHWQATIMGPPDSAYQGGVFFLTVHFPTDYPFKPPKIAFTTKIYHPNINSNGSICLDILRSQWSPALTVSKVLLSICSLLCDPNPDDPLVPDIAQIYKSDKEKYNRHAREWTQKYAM
UniProt Q712K3, sequence (whole entry, looked up): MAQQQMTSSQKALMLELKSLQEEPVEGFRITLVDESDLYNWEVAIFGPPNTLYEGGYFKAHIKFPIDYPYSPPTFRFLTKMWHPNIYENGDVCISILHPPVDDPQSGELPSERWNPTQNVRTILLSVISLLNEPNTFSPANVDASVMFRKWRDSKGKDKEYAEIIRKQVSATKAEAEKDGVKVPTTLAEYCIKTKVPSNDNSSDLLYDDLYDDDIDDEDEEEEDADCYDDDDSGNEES
UniProt P61081, sequence (whole entry, looked up): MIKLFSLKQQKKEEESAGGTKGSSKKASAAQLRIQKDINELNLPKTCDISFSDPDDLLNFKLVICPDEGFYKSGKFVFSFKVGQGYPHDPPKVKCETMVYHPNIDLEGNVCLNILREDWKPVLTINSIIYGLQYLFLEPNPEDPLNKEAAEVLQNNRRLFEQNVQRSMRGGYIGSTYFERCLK
UniProt Q9H832, sequence (whole entry, looked up): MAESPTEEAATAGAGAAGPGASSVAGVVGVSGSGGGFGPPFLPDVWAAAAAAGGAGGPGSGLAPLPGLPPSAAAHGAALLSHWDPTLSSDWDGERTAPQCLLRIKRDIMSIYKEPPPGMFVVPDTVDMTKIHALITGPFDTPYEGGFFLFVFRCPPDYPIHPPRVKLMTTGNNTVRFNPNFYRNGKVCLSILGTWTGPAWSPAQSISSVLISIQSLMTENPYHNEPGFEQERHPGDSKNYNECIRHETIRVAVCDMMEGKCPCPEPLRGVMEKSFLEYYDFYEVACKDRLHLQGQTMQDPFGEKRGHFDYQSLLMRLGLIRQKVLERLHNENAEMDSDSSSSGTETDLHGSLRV
UniProt Q7Z7E8, sequence (whole entry, looked up): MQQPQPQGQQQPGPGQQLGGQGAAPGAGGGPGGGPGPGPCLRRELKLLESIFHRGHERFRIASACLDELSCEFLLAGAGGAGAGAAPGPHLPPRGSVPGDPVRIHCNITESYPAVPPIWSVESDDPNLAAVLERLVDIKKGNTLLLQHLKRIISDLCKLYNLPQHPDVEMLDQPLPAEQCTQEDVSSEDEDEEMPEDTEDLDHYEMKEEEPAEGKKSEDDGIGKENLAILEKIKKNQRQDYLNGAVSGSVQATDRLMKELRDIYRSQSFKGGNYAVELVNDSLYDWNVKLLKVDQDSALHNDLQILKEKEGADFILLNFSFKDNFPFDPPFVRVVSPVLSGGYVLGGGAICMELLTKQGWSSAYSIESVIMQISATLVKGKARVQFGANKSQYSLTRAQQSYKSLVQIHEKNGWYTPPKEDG

Series 1
Target: RNA binding protein fox-1 homolog 2, RRM domain, GST-SBP tag (RBFOX2, Homo sapiens, UniProt O43251-10, residues 100-194)
Method: RNA Bind-n-Seq
Form: RNA
Sample: in vitro
Concentration: 365 nM
Setting: natural RNA segment, single round, ends assumed
Baseline: no-protein control
Reading: higher = stronger binding
Construct (chain): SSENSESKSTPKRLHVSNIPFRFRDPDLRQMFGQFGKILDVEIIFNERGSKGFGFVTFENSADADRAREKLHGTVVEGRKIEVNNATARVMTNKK
| Oligonucleotide | RBNS enrichment (R) |
| --- | --- |
| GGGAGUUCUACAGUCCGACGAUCAGUCUAUGGAUGUCUUGGCUCUGCUGUCCUGUACUUGCGUGUGUUUUAUUCCUAUUUAAUGUUAUUGACUAUAGCGGAUCUUUGAAAUCAGUGUUUUCCGUGUGAAUUUCUGGAAUUCUCGGGUGCCAA | 1.14 |
| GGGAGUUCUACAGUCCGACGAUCUAGCUAUUUUCACUUGUAUGUAUAUAUUGUAUAUACAUAUAAGUGUCUGUAUGUGUGUAUAGAUGGAUUGGUAUAACUCAUUCUAAACGUGUCUGCCAGGGCUCAAGUUUUGGAAUUCUCGGGUGCCAA | 0.334 |
| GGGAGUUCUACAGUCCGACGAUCUGGGGGUUUUCAAUGUGAAACACAUGCCAGUUUUUAAAAUGCUGCUUUGUCCAGGUGAGAACAUCCAUAAUUUGGGGCCCUGAGUUUUACCCAGACUCAAGGAGUUGGUAUGGAAUUCUCGGGUGCCAA | 0.345 |
| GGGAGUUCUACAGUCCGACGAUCUACAUGCCUGAUGGCACCUUACUCCAGCAGCCUCCAGGUGCUUUCAUUUUCACUUCCAGUCUAAGCCAGUGGCUCCUGCCACUGCCCUCCCAUUACCUAGAUGGCACCUCUGGAAUUCUCGGGUGCCAA | 0.42 |
| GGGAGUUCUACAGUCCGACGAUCGUUAUGAAUGAAAAUCAAACGAAGAUCCAAGCUGUACUGAUGUCAGAGGGAUGGUUCCAUUUUGACAGUGACUUUGGUUUUUUCCUCCGUAUAGAUUCAUCGUGUAGUUCUGGAAUUCUCGGGUGCCAA | 0.341 |
| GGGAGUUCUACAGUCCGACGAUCAGCCCAGACCACCACAGCUGGCCACGACAUUGCCCUUAAGUAAUAUGCAUUGGCCAGAGAGCCCGGGCUGGCUGUGCACAGCAUUCAUGUAGCUGAUUUCUAGCUUUUUUUGGAAUUCUCGGGUGCCAA | 1.84 |
| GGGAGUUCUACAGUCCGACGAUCCAACCUUUUAGCUGUUGCAAAUCAGAAGGAGCCAGAGAAGCAGGCAGUCUCAUGCAUGAGAGGUUACCCUUCAGGAUGACAGAGCUGAGGGUCUUUGUAGGAGUUGCUCUUGGAAUUCUCGGGUGCCAA | 12.1 |
| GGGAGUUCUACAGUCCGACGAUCGGACUGAGUGUUCGGGGCAGCCUGCUCGGCUGUAUGUUUCUCGCACGCUCACCCGCUUCAGUGCGGCUCUGUCCCUGCUGCCGCCUCCAGUCCUGAGGGAGGGGCUUGCCUGGAAUUCUCGGGUGCCAA | 0.803 |

Series 2
Target: Histone acetyltransferase KAT6A, winged helix 1, GST fusion (KAT6A, Homo sapiens, UniProt Q92794, residues 1-85)
Method: protein binding microarray
Form: double-stranded DNA, one strand shown
Sample: in vitro
Concentration: not given
Setting: 8-mer, flanks averaged, mean of 2 arrays, mostly near background
Baseline: not given
Reading: higher = stronger binding
Construct (chain): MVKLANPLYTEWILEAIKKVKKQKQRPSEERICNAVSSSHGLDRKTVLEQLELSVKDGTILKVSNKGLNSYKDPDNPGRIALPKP
| Oligonucleotide | E-score |
| --- | --- |
| CACACAGG | -0.232 |
| CGCTGCAC | 0.24 |
| CAAATGCC | 0.00303 |
| AATAGCTG | -0.126 |
| TAATCGCA | 0.00549 |
| CCTTGGGA | -0.164 |
| CCGACCTC | -0.0659 |
| TCCGATAA | -0.115 |
| CGCCAACC | 0.226 |
| ATCTCGGC | 0.168 |
| ACGGTTTG | 0.0732 |
| AACCGAAC | -0.163 |
| CATCGTCA | -0.163 |
| CGCAAAAG | 0.222 |
| GCACAAAA | -0.052 |
| AACAAAAT | -0.193 |

Series 3
Molecule: ANYISAHTKDCPKCNICIEKNGGCNHMQCSKCKHDFCWMCLGDWKTHGSE (ARIH2 RING domain (UniProt O95376))
Method: yeast two-hybrid
Form: peptide
Sample: yeast
Setting: mostly zero background
Baseline: not given
Reading: higher = stronger interaction
| target | lacZ reporter activity |
| --- | --- |
| UBE2T UBC core domain (UniProt Q9NPD8) | 0 |
| UBE2D1 UBC core domain (UniProt P51668) | 0 |
| UBE2J1 UBC core domain (UniProt Q9Y385) | 0 |
| UBE2R2 UBC core domain (UniProt Q712K3) | 0 |
| UBE2Q1 UBC core domain (UniProt Q7Z7E8) | 0 |
| BIRC6 UBC core domain (UniProt Q9NR09) | 0 |
| UBE2Z UBC core domain (UniProt Q9H832) | 14600 |
| UBE2M UBC core domain (UniProt P61081) | 0 |

Series 4
Target: Ras GTPase-activating protein-binding protein 1, full length (G3BP1, Homo sapiens, UniProt Q13283)
UniProt Q13283, sequence (whole entry, looked up): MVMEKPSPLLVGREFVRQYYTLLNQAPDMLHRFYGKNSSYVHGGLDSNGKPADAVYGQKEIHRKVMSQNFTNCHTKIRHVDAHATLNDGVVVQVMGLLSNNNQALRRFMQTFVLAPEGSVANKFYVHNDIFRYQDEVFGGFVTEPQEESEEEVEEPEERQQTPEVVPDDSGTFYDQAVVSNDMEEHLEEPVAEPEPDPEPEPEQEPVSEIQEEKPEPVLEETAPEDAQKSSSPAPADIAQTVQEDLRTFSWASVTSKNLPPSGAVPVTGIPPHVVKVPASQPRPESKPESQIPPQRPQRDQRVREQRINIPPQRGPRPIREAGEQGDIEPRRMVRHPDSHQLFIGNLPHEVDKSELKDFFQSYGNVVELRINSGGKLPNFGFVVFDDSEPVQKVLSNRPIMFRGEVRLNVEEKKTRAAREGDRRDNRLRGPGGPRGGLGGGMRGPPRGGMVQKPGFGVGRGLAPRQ
Method: RNA Bind-n-Seq
Form: RNA
Sample: in vitro
Concentration: 200 nM
Setting: whole 134-nt RNA, ends assumed
With: 150 mM LiCl
Baseline: input library
Reading: higher = stronger binding
Library: 7-deaza-guanosine replaces G
| Oligonucleotide | log2 enrichment |
| --- | --- |
| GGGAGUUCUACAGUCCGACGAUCACCAUGCAGGUGGGCAUCUUUGGGAAGUGGGGCAAGGCGGGGAUAGGGAGGGGGGUAACACUUUGGGAACAGGUGGUCCCAGGUCGUUUCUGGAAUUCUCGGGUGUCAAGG | 0.374 |
| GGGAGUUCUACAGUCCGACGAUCUCCUCAAGUCCUGUGCUACACAUCGUAUGUACCGAAUCGGCGGGCGGGGCGGAAAGUAUUAUGUUACGCCGUUCGGAUCUGCACUUCCAGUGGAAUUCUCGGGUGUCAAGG | 0.989 |
| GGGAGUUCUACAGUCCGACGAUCUCAAGUCCUGUGCUACACAUCGUAUGUACCGAAUCGGGAAGGGGAAGGGGAAGGGAAAGUAUUAUGUUACGCCGUUCGGAUCUGCACUUCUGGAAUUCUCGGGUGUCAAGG | -0.221 |
| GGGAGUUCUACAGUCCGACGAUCUGGCCCUGGUGGCAUGCGGGGAAGAAGAGGUGGCCUCAUGGAUCGUGGUGGUCCCGGUGGAAUGUUCAGAGGUGGCCGUGGUGGAGACAGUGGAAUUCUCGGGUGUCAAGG | 0.369 |
| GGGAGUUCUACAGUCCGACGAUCCCUGUGCUACACAUCGUAUGUACCGAAUCGGUUUUUUGGGGUUUUUUGGGGUUUUUUGGGAAAGUAUUAUGUUACGCCGUUCGGAUCUGCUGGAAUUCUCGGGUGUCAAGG | 0.584 |
| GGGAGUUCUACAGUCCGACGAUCUCCUGUGCUACACAUCGUAUGUACCGAAUCGGGGUUUUUGGGGAAAAAGGGGAAAGGGGAAAGUAUUAUGUUACGCCGUUCGGAUCUGCAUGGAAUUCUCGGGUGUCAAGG | 0.0105 |
| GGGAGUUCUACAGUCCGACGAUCACCAUGCAGGUGGGCAUCUUUGGGAAGUGGGGCAAGGGGGGAAAAGGGAGGGGGGUAACACUUUGGGAACAGGUGGUCCCAGGUCGUUUCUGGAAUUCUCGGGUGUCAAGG | 0.415 |
| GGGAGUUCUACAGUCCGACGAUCAAGUCCUGUGCUACACAUCGUAUGUACCGAAUCGGAAAAAGGGAAAAAGGAAAAAGGAAAGUAUUAUGUUACGCCGUUCGGAUCUGCACUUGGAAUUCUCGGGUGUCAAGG | -0.511 |

Series 5
Target: RING finger protein unkempt homolog, zinc fingers 1-6, SBP tag (UNK, Homo sapiens, UniProt Q9C0B0, residues 30-357)
UniProt Q9C0B0, sequence (30-357, looked up): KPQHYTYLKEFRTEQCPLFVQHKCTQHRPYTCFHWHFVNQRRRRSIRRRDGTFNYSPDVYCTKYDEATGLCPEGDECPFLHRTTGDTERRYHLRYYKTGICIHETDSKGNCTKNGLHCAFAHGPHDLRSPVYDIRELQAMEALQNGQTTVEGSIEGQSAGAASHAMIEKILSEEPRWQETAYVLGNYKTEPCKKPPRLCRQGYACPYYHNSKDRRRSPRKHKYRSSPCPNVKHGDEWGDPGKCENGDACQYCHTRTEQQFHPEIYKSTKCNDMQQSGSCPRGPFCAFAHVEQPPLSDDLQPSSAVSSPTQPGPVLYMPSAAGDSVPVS
Method: RNA Bind-n-Seq
Form: RNA
Sample: in vitro
Concentration: 100 nM
Setting: RNA with constant flanks, vertebrate orthologous sites, ends assumed
Baseline: input RNA pool
Reading: higher = stronger binding
| Oligonucleotide | bound/input enrichment [ratio] |
| --- | --- |
| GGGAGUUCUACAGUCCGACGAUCACACGUAUAUUGUGGCGUAUAGUCAACAUGGAAGUAGACCGGCUCUGCUGAUUUGAAAUUUAGAUUUUUUUAAUUAUGUACUGGGGACAGGUUUUUGUCGCUUUACAUUGCUUCCUAGUUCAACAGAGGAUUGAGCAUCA | 4.08 |
| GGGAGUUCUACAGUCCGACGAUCUAAAGGUUUUUUUUUUUUAAUUUAAUUUUUCCUUUUGGGGGUAAAGUUUGCUCUACCAAAUAGUGAUCGUAACAAAUUGAUCUGUUUUGGAUGUUGCUAUAGUGACAUGCAGUUAUAUAUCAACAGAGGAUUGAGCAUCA | 0.618 |
| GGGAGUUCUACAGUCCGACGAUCUCAUCUCUUUUUAUAUGUCCAAAAUGGCUUUGAAAUUUUUAAACAGUUGCUAGUUUUACUCAGCUCUGCCCUCAUGAAGUAUUGUUGUUGGUCACUGACAGACAGAGUCUGUUACUUCAGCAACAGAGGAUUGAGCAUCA | 0.442 |
| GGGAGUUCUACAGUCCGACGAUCCCCAUGGCUGCUUUGUAUCACCUCAGUGAGUUACAGUCCCCCUUGGCAUUUAGUUGGUACUAGAGCCAGUCAUCCUUAACAAAUCUUUUCACAUUUUAUUUCUUUCACACGUAGUCAUCUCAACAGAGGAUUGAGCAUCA | 2.79 |
| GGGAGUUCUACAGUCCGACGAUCGUGGGGAUUGGGGUGGGGUGGGAAGAAGAUGUAUGGAUAUUAUUGGCAUUUUUAAGUGUUCAGAGUUUUUUGUGUUGUUUUUUUUUUUUUGGUUUUGUUUUGUUUUUGUUUUCCCUCUCGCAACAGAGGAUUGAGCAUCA | 1.16 |
| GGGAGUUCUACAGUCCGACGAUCGUUGAACAUAAAUGUUUCCACUGGGUUUUGCUUAUAAGAAGAAAUGGACCCAUGCACUUAUAUAGCUUUUUAAUAGCGUUAACCAAUGCAUUUUUAGACAUAUUUUGAUGUAUAUAUCUACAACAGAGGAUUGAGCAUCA | 1.53 |
| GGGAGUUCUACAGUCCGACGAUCCCAUUGUACUAGUGACAAUUUUCAUAGGGAUGACUGUCCAUAGUGGUAACUAGUCUGUGCUAGCAGAAUCAUUUACUGUGACUUUUUAAUUAUCUGCUUUGUCUGAUACCUGAAACCAAUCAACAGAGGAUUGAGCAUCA | 0.425 |
| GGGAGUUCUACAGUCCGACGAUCAUUACAGCAAAAGAGCCAAGCAGUAGCAUUGUUGUUGGGUUUUUUUUAAUGUAAAAAAAAUAGGUCCAGACUUUGUUUCCGUAUUCAAUCUUAAAAAUAAAAAAAUACCUCAGUACUGUUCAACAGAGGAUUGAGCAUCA | 0.348 |

Excerpt of the above (series 3):
| target | lacZ reporter activity |
| --- | --- |
| UBE2R2 UBC core domain (UniProt Q712K3) | 0 |
| UBE2T UBC core domain (UniProt Q9NPD8) | 0 |
| UBE2J1 UBC core domain (UniProt Q9Y385) | 0 |
| BIRC6 UBC core domain (UniProt Q9NR09) | 0 |
| UBE2Q1 UBC core domain (UniProt Q7Z7E8) | 0 |
| UBE2D1 UBC core domain (UniProt P51668) | 0 |
| UBE2Z UBC core domain (UniProt Q9H832) | 14600 |
| UBE2M UBC core domain (UniProt P61081) | 0 |
